# Published values pooled from the literature.
# A part holds a random share of what one study measured.
# Sequence of UniProt P42336 (whole entry, unmodified, looked up): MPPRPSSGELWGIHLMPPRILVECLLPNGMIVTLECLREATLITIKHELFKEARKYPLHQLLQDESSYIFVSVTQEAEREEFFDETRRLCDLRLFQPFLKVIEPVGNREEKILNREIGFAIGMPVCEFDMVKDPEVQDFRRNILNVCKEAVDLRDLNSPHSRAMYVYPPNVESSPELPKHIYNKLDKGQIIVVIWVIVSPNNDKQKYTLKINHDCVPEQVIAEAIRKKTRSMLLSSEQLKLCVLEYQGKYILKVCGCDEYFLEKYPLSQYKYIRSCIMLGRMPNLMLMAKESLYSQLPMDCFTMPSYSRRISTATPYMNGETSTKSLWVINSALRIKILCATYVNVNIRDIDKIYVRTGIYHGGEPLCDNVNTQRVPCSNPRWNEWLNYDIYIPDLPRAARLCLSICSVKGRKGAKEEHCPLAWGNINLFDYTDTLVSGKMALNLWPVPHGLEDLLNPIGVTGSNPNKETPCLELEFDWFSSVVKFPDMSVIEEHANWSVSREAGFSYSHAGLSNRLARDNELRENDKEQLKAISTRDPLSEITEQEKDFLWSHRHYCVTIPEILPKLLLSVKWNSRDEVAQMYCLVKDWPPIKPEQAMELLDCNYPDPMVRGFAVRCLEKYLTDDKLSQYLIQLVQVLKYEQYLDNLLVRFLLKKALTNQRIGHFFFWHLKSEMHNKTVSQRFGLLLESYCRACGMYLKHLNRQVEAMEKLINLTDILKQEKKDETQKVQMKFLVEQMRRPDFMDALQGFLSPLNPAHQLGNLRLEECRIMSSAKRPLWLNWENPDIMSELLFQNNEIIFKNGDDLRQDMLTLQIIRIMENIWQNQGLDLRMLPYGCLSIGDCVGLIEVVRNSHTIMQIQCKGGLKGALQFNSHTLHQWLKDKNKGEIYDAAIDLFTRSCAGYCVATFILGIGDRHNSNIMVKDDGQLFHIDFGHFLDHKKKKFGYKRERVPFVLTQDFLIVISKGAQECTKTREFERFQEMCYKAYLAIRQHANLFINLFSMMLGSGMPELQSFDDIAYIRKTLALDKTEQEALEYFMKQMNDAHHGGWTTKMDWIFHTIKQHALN
# Sequence of UniProt Q00537 (whole entry, looked up): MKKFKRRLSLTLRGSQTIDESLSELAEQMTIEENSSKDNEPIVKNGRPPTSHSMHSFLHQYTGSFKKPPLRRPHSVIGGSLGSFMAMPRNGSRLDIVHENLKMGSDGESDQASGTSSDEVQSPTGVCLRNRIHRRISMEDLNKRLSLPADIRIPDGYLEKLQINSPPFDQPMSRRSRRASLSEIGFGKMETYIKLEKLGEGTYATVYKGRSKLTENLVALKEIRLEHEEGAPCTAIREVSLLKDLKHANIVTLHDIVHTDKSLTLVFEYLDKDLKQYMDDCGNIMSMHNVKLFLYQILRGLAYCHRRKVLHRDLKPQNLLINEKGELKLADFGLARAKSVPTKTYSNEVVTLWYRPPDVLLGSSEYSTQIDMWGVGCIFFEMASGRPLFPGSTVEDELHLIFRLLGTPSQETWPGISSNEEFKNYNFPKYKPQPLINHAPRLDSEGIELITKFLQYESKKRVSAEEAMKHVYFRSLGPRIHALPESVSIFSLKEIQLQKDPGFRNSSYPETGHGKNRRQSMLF
# Sequence of UniProt Q8NEV4 (whole entry, looked up): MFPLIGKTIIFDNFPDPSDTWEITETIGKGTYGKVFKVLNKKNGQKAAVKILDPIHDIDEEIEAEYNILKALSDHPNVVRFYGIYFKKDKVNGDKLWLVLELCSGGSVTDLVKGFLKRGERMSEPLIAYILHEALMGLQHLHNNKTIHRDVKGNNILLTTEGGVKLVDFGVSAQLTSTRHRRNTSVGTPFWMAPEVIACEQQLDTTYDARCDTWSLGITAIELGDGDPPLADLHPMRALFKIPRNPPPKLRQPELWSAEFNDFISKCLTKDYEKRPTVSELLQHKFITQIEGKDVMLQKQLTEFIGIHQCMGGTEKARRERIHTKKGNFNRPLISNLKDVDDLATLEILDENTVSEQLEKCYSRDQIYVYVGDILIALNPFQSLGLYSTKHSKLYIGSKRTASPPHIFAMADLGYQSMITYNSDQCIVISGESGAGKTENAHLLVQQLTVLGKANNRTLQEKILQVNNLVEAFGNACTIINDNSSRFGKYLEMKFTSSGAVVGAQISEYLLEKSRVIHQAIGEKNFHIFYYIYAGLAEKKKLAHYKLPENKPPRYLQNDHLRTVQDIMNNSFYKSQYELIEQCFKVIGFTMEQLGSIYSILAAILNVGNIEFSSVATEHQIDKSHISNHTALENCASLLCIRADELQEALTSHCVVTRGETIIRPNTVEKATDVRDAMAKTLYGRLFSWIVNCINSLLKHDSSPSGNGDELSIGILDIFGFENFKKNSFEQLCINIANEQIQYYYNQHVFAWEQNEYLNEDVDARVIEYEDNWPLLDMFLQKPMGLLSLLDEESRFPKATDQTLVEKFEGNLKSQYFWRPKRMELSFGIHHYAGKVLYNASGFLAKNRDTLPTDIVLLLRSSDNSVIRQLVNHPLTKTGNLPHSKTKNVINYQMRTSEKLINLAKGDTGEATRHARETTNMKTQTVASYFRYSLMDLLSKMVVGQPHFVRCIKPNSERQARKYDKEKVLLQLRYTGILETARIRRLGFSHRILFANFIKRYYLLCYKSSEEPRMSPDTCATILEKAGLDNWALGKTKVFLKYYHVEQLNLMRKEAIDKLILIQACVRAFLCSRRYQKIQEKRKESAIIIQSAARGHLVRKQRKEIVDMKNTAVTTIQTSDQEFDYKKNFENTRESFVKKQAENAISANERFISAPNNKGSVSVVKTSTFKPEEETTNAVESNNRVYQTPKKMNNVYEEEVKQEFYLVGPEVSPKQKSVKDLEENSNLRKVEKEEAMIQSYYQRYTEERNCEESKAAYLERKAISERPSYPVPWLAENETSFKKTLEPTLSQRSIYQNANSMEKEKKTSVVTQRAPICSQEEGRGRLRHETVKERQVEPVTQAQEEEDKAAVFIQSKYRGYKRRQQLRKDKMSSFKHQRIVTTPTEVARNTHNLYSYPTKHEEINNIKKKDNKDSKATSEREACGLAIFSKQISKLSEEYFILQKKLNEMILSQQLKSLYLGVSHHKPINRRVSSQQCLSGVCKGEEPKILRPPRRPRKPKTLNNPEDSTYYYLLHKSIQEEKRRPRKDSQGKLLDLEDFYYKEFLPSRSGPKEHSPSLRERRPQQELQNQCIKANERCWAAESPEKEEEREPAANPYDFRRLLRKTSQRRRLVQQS
# Sequence of UniProt Q13873 (whole entry, looked up): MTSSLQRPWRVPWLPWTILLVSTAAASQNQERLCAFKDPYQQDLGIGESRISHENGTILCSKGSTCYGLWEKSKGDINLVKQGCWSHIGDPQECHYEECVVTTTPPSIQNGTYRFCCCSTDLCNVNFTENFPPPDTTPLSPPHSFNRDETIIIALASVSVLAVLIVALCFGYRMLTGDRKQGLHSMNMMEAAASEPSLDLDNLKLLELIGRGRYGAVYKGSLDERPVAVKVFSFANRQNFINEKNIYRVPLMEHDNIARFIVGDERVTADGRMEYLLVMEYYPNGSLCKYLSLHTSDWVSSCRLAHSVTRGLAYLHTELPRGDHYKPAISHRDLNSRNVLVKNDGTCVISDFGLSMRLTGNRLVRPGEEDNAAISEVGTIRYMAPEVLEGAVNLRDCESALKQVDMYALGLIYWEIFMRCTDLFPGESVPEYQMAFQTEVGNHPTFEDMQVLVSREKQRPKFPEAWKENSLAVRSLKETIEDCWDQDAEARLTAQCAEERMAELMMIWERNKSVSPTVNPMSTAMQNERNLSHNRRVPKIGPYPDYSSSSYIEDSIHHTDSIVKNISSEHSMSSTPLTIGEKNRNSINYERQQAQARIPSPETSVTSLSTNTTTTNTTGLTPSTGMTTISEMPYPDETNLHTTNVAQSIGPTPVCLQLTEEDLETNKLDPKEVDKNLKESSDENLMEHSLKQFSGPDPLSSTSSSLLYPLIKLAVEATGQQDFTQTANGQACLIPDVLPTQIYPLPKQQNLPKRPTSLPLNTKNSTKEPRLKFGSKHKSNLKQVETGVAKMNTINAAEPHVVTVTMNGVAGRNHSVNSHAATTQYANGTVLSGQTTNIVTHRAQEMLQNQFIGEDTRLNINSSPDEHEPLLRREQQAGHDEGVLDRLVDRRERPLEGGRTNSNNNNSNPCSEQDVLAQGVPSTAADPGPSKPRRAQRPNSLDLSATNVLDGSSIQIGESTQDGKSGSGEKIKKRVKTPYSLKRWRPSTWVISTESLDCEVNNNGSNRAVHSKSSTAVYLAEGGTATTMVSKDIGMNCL
# Sequence of UniProt Q9P1W9 (whole entry, looked up): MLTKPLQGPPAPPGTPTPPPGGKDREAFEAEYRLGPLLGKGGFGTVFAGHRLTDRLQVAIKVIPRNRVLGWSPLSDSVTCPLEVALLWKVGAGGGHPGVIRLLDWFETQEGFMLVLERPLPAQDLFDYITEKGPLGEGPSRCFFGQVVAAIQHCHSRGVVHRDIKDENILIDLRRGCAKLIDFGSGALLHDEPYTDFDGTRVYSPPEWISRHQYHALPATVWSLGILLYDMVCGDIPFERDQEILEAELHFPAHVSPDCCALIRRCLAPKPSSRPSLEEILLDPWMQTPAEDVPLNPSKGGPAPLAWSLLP
# Sequence of UniProt Q15759 (whole entry, looked up): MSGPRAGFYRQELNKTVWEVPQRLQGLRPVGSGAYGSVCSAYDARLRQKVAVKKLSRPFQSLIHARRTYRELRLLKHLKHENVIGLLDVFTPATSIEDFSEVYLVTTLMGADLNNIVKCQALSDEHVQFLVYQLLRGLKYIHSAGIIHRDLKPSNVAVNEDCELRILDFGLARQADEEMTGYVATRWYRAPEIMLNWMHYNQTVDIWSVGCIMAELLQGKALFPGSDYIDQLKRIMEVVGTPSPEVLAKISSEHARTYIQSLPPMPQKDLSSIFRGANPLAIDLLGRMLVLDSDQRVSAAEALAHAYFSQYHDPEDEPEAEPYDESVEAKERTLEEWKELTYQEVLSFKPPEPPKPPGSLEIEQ

# Sample 1 — technique: RNA Bind-n-Seq; molecule type: RNA; medium: in vitro; tested at: 365 nM; baseline: no-protein control; direction: higher = stronger binding
# Target: RNA binding protein fox-1 homolog 2, RRM domain, GST-SBP tag (RBFOX2, Homo sapiens, UniProt O43251-10, residues 100-194)
# Notes: natural RNA segment, single round, ends assumed
# All sequences stand within: GGGAGUUCUACAGUCCGACGAUC … UGGAAUUCUCGGGUGCCAA
# Residues (chain): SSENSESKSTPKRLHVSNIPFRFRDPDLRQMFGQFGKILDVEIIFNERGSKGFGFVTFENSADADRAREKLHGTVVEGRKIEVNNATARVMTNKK
Strand,RBNS enrichment (R)
CCGACCCAGGCCCCCAAAUCUGGGCUGUUGUGGAACACCCAUGACUUAAGCCUUUCUCCAAGUCUGGAUUCCAGAAAUGUUCCCCACAUCAAGGCUCUGACACCCCAGCC,0.713
AGCAUAUCUGUGACCAUCUGCUCCUGAUAACCACUGUCCAGCAUCUCUUCGGGCCAGCCCGGUGCCACGGUCACAUGGGGGAAGACUUCAGCCACAGCUGUGAGCAGCUC,0.731
AAUGUGGACUAUUUUGAAAUUAUAACCAUUUUUGAUGCCCUGAAUCUUGAGGUGACUUAUUUUGCAUAGAGGAUAUGGAUAGACCAACAGUAAGGGUUGUGGGUUAUACC,1.08
UGCGCUUAAUCCCUGCCUUUGAAAAAUGGGCCAAUACACAACACAGACAAUAAUUUGAAGCGUCUGUAUUCAGCAAAGAUAAAUACAGCAGUCCAGUCUAUAGGUGCUCU,0.368
GGCUGAAGGUAUUAUGACUGUAAAGGUGUCUUCAGUUGUUUUUAGGGAGAACAGGUAGUAGAAAUUCAGGAUUACCAAGUGGCCACCAGUGCACACACUCCGCAGCUGUG,1.2
GCCUGAGAGCUGUACCUAUCAGAACCUUGGGUGCUAAGCUGUGCUGAGGGGGAAGACGUGGGACCGGAUGGCCCGUCUGAGGUUUGUGGGGUCACUGUGCAAGCUUCCUU,0.307
AAAUCCAACAUUCACCUAAGCAAGUAAUUCUUAAAGAUCUUACAGAAACGCAGAGUCAAUCAGGUUUAUAAAGGAAGGCUGAGGGGAGAGAGGAGGCCUGGGGGCCUGGA,0.557
CCCAGGCUGGAGUGCAGUGGCUCAAUCUCGGGUCACUGCAACCUCCGCCUCCCGGGUUCAAGUGAUCGUCCUGCCUUAGGCUCCUGAGUAGCUGGGGAUUACAGGUGCCU,0.29

# Sample 2 — technique: protein-binding microarray; molecule type: double-stranded DNA, one strand shown; medium: in vitro; tested at: not given; direction: higher = stronger binding
# Target: Transcriptional repressor CTCF (CTCF, Homo sapiens, UniProt P49711, residues 1-727, full length assumed)
# Notes: k-mer, scored over probes, only values ≥0.25
# Residues (chain): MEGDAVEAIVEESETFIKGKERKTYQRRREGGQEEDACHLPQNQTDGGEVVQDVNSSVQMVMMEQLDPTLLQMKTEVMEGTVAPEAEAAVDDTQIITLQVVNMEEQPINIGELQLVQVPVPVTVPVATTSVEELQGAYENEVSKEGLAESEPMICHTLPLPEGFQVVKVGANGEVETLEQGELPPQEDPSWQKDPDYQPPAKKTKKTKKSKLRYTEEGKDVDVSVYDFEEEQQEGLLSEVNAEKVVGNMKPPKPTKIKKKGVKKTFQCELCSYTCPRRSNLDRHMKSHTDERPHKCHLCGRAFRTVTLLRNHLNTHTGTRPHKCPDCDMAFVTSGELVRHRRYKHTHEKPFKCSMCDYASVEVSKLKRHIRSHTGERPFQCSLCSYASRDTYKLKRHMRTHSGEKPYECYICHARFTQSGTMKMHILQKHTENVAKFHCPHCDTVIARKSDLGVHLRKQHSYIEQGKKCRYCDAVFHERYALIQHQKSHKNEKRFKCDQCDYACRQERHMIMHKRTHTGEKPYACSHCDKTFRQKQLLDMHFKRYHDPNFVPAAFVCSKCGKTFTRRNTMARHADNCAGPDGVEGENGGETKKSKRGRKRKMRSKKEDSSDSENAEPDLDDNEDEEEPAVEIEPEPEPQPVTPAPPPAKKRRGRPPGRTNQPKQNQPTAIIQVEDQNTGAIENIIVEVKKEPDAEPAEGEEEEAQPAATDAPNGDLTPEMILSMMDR
Strand,E-score
CATGCGCG,0.259
ATTGGCGC,0.314
ACCCGCGC,0.32
ATTAACAA,0.276
AATATGGT,0.252
ATGTTGTG,0.297
GGGTAACA,0.252
CCGCAATA,0.251

# Sample 3 — host: mouse; medium: microsomes or S9; tested at: 2 µM; time: 0.5 h
SMILES,remaining compound [%]
CC1(C)OC2CC(=O)OCC23C1CC(=O)C1(C)C3CC[C@@]2(C)[C@H](c3ccoc3)OC(=O)C3OC312 (stereo partly shown),38.1
CCN(CC)S(=O)(=O)c1ccc(NC(=O)C(C)N(c2ccc(C)c(C)c2)S(C)(=O)=O)cc1 (stereo not shown),88.3
O=C(Nc1ccncc1)c1nn(Cc2ccccc2)c2c1CCc1ccccc1-2,76.3
Cc1ccc(NC(=O)Nc2ccc(Cc3ccc(NC(=O)OC(C)(C)C)cc3)cc2)cc1,42.5
CC(C)[C@H](NC(=O)c1ccc2nc(-c3ccc(NC(=O)NCc4ccccc4)cc3)cn2c1)C(=O)O,41.7

# Sample 4 — observed: cell-free assay; technique: competition with immobilised ligand; tested at: 1 µM
# Compound: O=C(NCc1ncc(C(F)(F)F)cc1Cl)c1ccc2c(c1)C1(CCS(=O)(=O)CC1)[C@@H](C1CC1)N2S(=O)(=O)c1ccc(F)cc1
target,remaining binding [%]
"Bone morphogenetic protein receptor type-2 (BMPR2, Homo sapiens, UniProt Q13873)",73
"Mitogen-activated protein kinase 11 (MAPK11, Homo sapiens, UniProt Q15759)",100
"Phosphatidylinositol 4,5-bisphosphate 3-kinase catalytic subunit alpha isoform (PIK3CA, Homo sapiens, UniProt P42336, H1047L)",85
"Mitogen-activated protein kinase kinase kinase 4 (MAP3K4, Homo sapiens, UniProt Q9Y6R4)",84
"Mast/stem cell growth factor receptor Kit (KIT, Homo sapiens, UniProt P10721, V559D)",85
"Serine/threonine-protein kinase pim-2 (PIM2, Homo sapiens, UniProt Q9P1W9)",92
"Phosphatidylinositol 4,5-bisphosphate 3-kinase catalytic subunit alpha isoform (PIK3CA, Homo sapiens, UniProt P42336, M1043I)",56
"Cyclin-dependent kinase 17 (CDK17, Homo sapiens, UniProt Q00537)",99
"Myosin-IIIa (MYO3A, Homo sapiens, UniProt Q8NEV4)",100
"STE20/SPS1-related proline-alanine-rich protein kinase (STK39, Homo sapiens, UniProt Q9UEW8)",77
